Experimental data from different studies.
Each numbered part is a random draw from the data of one study; scales do not carry over between parts.

Study 1
Target: Histone acetyltransferase KAT6A, winged helix 2, GST fusion (KAT6A, Homo sapiens, UniProt Q92794, residues 85-181)
Technique: protein binding microarray
Form: double-stranded DNA, one strand shown
Sample: in vitro
Tested at: not given
Notes: 8-mer, flanks averaged, mean of 2 arrays, mostly near background
Relative to: not given
Reading: higher = stronger binding
Residues (chain): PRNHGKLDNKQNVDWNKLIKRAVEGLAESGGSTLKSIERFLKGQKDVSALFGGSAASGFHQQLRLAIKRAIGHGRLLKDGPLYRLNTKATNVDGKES
For `CCCCGAGG`, the E-score was 0.151.
With `TCCACCCA` the E-score was -0.108.
`AATCGTCA` gave an E-score of -0.032.
The E-score of `ACCTTTAT` is reported as -0.242.
The E-score of `AACGACAC` is reported as -0.0141.
For `ACCACTGG`, the E-score was 0.0359.
For `GTTTACGA`, the E-score was -0.0379.
For `AACATAGC`, the E-score was -0.0164.
With `GATTGTAA` the E-score was 0.00439.
`ATTACGTG` gave an E-score of -0.209.

Study 2
Target: Interferon regulatory factor 7, full length, phosphomimetic (IRF7, Homo sapiens, UniProt Q92985, residues 1-503, S101K/S471D/S472D/S475D/S476D/S477D/S483D/S484D/S487D)
Technique: protein-binding microarray
Form: double-stranded DNA, one strand shown
Sample: in vitro
Tested at: 250 nM
Notes: 60-bp whole probe
Added: salmon DNA 0.4 mg/ml
Relative to: random background probes
Reading: higher = stronger binding
Shared flanks, not repeated: GCCTAGCAC … GTCTTGATTCGCTTGACGCTGCTG
Target sequence (chain): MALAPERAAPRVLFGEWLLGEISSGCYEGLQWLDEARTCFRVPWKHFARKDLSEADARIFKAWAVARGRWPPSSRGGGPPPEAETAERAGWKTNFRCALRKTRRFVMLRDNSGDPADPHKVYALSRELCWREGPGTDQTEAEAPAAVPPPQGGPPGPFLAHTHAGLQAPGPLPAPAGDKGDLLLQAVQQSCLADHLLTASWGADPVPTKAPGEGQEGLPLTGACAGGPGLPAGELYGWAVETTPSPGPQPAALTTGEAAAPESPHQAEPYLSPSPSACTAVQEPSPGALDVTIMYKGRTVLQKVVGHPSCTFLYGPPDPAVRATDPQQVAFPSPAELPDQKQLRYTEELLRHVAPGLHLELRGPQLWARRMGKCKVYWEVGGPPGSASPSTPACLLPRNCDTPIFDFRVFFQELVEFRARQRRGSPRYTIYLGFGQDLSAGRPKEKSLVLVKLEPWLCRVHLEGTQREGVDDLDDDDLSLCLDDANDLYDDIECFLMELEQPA
`CCATCTCAGCCTCCCCAAGGGTGCTAG` has a log fluorescence of 0.363 z-score.
`TTTTCTTTTCATTACTGCATGTGCTAG` gave a log fluorescence of 3.86 z-score.
For `TTAGAACTGGGGTTTCGATTGGTGCTA`, the log fluorescence was 7.34 z-score.
`ACTTTTTTCTGATTGAATCTGTGCTAG` has a log fluorescence of 3.34 z-score.
`ATAGGTTTCCTACTGCTTTAGTGCTAG` has a log fluorescence of 1.12 z-score.
The log fluorescence of `GACAAACTGGGGACTGGAGACGTGCTA` is reported as 0.0385 z-score.
`GACGAACTGAGTTTCGAGCCGTGCTAG` gave a log fluorescence of 1.66 z-score.
With `GACGAGATCGGGTTTCGAGACGTGCTA` the log fluorescence was 3.49 z-score.
`TTAGGTATCGGGACTGGGGTAGTGCTA` has a log fluorescence of -0.131 z-score.

Study 3
Target: Ras GTPase-activating protein-binding protein 1, RRM domain (G3BP1, Homo sapiens, UniProt Q13283)
Sequence of UniProt Q13283 (whole entry, looked up): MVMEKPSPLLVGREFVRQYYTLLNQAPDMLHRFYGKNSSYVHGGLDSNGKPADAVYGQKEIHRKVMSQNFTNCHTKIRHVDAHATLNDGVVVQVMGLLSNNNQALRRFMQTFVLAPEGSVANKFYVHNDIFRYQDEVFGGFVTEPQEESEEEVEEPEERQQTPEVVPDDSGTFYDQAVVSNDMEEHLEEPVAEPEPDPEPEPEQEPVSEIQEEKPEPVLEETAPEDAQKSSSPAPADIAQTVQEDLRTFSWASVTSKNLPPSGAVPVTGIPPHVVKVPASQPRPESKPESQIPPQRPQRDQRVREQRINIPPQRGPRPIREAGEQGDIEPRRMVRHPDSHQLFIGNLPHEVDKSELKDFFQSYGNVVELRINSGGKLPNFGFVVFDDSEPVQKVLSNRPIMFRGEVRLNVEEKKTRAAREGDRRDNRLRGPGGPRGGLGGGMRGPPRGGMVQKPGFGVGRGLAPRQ
Technique: RNA Bind-n-Seq
Form: RNA
Sample: in vitro
Tested at: 1 µM
Notes: whole 134-nt RNA, ends assumed
Added: 150 mM KCl
Relative to: input library
Reading: higher = stronger binding
With `GGGAGUUCUACAGUCCGACGAUCUCCUCCCUGGCUUCAGCCAGUCCCUGACGCUGAGCACUGGCUUCCGAGUCAUCAAGAAGAAGCUGUACAGCUCGGAACAGCUGCUCAUUGUGGAAUUCUCGGGUGUCAAGG` the log2 enrichment was -0.177.
The log2 enrichment of `GGGAGUUCUACAGUCCGACGAUCUGGGAGGUGGAUUUUGUUUAUUUUUUGAGCUCAUUUCCAGGGGUGGGAAUUUUUUUUUAAUAUGUGUCAUGAAUAAAGUUGUUUUUGAAAUGGAAUUCUCGGGUGUCAAGG` is reported as 2.08.
With `GGGAGUUCUACAGUCCGACGAUCUCCUGUGCUACACAUCGUAUGUACCGAAUCGGUUUUUUGGGGUUUUUUGGUUUUUUGGGGAAAGUAUUAUGUUACGCCGUUCGGAUCUGCUGGAAUUCUCGGGUGUCAAGG` the log2 enrichment was -0.198.

Other studies, line by line
For `PhoQ, residues 284 288 289 292 302 303 WVSSAF`, the fold induction was 1.5 (PhoP, residues 12 14 15 18 19 LHHSG (Escherichia coli, UniProt P23836); Sort-seq, measured: YFP reporter; E. coli; PhoQ-PhoP variant library, added: 10 µM Mg2+; relative to: high Mg2+ state, higher = stronger signaling).

For quick reference, copied from above (study 3):
With `GGGAGUUCUACAGUCCGACGAUCUCCUGUGCUACACAUCGUAUGUACCGAAUCGGUUUUUUGGGGUUUUUUGGUUUUUUGGGGAAAGUAUUAUGUUACGCCGUUCGGAUCUGCUGGAAUUCUCGGGUGUCAAGG` the log2 enrichment was -0.198.
With `GGGAGUUCUACAGUCCGACGAUCUCCUCCCUGGCUUCAGCCAGUCCCUGACGCUGAGCACUGGCUUCCGAGUCAUCAAGAAGAAGCUGUACAGCUCGGAACAGCUGCUCAUUGUGGAAUUCUCGGGUGUCAAGG` the log2 enrichment was -0.177.
The log2 enrichment of `GGGAGUUCUACAGUCCGACGAUCUGGGAGGUGGAUUUUGUUUAUUUUUUGAGCUCAUUUCCAGGGGUGGGAAUUUUUUUUUAAUAUGUGUCAUGAAUAAAGUUGUUUUUGAAAUGGAAUUCUCGGGUGUCAAGG` is reported as 2.08.
